Measured values pooled from the literature.
Each numbered part is a random draw from the data of one study; scales do not carry over between parts. Substitutions count along the parent as printed.

Study 1
Target: RNA binding protein fox-1 homolog 2, RRM domain, GST-SBP tag (RBFOX2, Homo sapiens, UniProt O43251-10, residues 100-194)
Technique: RNA Bind-n-Seq
Molecule type: RNA
Medium: in vitro
Tested at: 365 nM
Setting: natural RNA segment, single round, ends assumed
Reference: no-protein control
Reading: higher = stronger binding
Shared flanks, not repeated: GGGAGUUCUACAGUCCGACGAUC … UGGAAUUCUCGGGUGCCAA
Construct (chain): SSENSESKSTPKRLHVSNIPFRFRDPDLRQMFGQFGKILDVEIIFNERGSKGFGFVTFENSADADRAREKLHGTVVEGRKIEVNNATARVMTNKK
Strand	RBNS enrichment (R)
UGGAACUAUAAUUCAGCAUCUUUUACUGCAUUUAAAGAUGGGAGCAAACUUUUGUAUGGUUGGGAGAUGUGGCUGGAAAGUACUUUGGAAAAUAUACAAUCAAGAUAUUU	2.25
UCCAGCAUGCACCAACUGUGCAGAACUUGGCUCGGUAACUUUGCGUGGAAAAAUAAAGUACAUUUUGAAGUAUCUUGAGGGUUGGGUCAAUUGAGACAUUUCUAGCAUUA	8.45
GUUUUUAAGUUACUUUCGAUGUGUAUACGAACAAAGACCAGGGAGAAACAGAACUUUUAAAACUAUAGGCUGCUGUGUUGGGGCCAGAAAUAAGGUGACAAGUAAAGACU	1.01
GUGUUCAGGUGACAGACUUUAUCAAAACUAUUGCUGUUUUGGCAUGAGUUGUGUUUCUGGACUGUUUUGUUUUCCCCUUUAGACAAAGAGCAACUUAGAAGUAUUUGCAA	0.675
GUGGGAGCCGCCCUUCUUCAUCUUAGAGAACCAAGUGCCUCCUGUCUGAAAGGUGAGGGUGGCCUGACCUGGGCCUCUCCCUGCCCCUCCAUAGGUGGGUUUGUAGGGUC	0.204
CUUGAGUUCUUAAGUACAGAAGAUAGAAGUGAUUUAAAUGGCAUAGUAUAUAUAUCAUUUUCUGGCCUUUUAAAAUUUAUUUGAGACCUCUUGAUGAAAUGGACAUAUUA	0.261
GUAUAUGUAAAGUGAUAUUUCGCUCUACAAGUUUGGCCUUAAUUAAACUCAUGAAUUAUAGGCAUUUUUAAUUUUUUGUAGACUAUGAACCCUGGCUGAUAUUGAAGUCA	0.579
GAUGCCAAUGGCUUGAAUUGAGUUCUUUUCAAGAACUGAUAGACUAUUUGGUAUGAAGUAGCAAAGCUACCUAGGAAGGUUAAAAAAUUAUGUACAUCAAAGAUAUCCUA	0.309

Study 2
Target: ABI1, truncated, D143A, DHFR fusion (Arabidopsis thaliana)
Technique: DHFR PCA, deep sequencing
Medium: yeast
Setting: methotrexate growth selection, single substitutions
Together with: (+)-ABA 710 µM
Reference: wild-type fitted maximum
Reading: higher = stronger binding
Parent: PYL1, truncated, DHFR fusion (Arabidopsis thaliana); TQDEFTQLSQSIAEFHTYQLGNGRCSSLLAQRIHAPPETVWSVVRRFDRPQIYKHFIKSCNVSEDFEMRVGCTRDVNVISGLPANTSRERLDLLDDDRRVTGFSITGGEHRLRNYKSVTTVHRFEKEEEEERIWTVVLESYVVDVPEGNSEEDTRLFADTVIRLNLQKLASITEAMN
Variant	relative binding score [%]
E139I	94.1
D95V	83.1
K126Q	109
L93I	110
V137I	96.1
C25D	-2.55
S11Y	99.4
F56Q	38.2
S27K	85.3
D75R	98.5
S59G	97.1
V70F	76

Study 3
Target: CCND3, cyclin fold, Cln2 fusion (human)
Technique: yeast growth competition, sequencing
Medium: yeast
Setting: weak parent motif
Reference: not given
Reading: higher = stronger binding
Parent: MASTL docking peptide (human); PMIAKNLMCELDE; partner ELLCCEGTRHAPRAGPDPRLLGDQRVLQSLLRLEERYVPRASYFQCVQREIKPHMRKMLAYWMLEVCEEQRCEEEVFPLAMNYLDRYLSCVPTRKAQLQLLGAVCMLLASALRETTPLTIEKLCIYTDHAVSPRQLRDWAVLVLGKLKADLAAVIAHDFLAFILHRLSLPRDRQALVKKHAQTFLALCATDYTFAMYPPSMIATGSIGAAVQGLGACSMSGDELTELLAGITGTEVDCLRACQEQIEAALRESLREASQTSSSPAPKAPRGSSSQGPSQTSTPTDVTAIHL
Variant	normalised enrichment score
L11F	-0.356
M2Q	0.0353
M2F	0.164
I3Q	0.0057
L11V	-0.0739
D12F	0.237
N6A	-0.223
M8D	-0.118
E10W	0.0121
M8G	-0.00638
K5Q	-0.14

Further values, each from its own experiment
Substance	target	assay	test system	setting	scale	endpoint	result
PhoQ, residues 284 288 289 292 302 303 SLANIV	PhoP, residues 12 14 15 18 19 LHSVW (Escherichia coli, UniProt P23836)	Sort-seq, measured: YFP reporter	E. coli	PhoQ-PhoP variant library, together with: 10 µM Mg2+	reference: high Mg2+ state, higher = stronger signaling	fold induction	7.32

A few entries again (study 3):
Variant	normalised enrichment score
M8D	-0.118
E10W	0.0121
